{"data": "Results of several laboratories", "note": "Protocols differ between the studies behind these lines. ± marks the error that the study gave."}
{"SMILES": "Cc1ncsc1-c1ccc(C(C)NC(=O)C2CC(O)CN2C(=O)C(NC(=O)CCCCCCCCCCN2CCCC(Nc3ncc(Cl)c(Nc4ccccc4S(=O)(=O)C(C)C)n3)C2)C(C)(C)C)cc1 (stereo not drawn)", "tested on": "22Rv1", "assay": "RNA-seq, item: NCK1-DT", "setting": "concentration not given", "how to read": "baseline: DMSO", "quantity": "log2 fold change", "result": -1.92}
{"SMILES": "Nc1ncc(-c2cc(-c3cnn(CC(F)(F)F)c3)ncc2F)nc1C(=O)NC1CNCC(F)C1 (stereo not drawn)", "tested on": "LATS1", "assay": "KINOMEscan", "setting": "1 µM", "how to read": "baseline: DMSO control", "quantity": "remaining binding", "result": "100%"}
{"SMILES": "CNS(=O)(=O)Nc1nccc(Cc2c(C)c3ccc(Oc4ncccc4F)cc3oc2=O)c1F", "tested on": "HEC-6", "assay": "cell viability", "setting": "7 days", "quantity": "IC50", "result": "987 nM"}
{"SMILES": "C=CC(=O)N1[C@@H](c2ccc3c(c2)OCO3)c2[nH]c3ccccc3c2C[C@H]1C(=O)N1CCN(C)CC1", "tested on": "human cyclin E1 wild type-3xFLAG:CDK2", "assay": "co-IP with TMT proteomics, item: PRDX1", "setting": "concentration not given, Q06830", "how to read": "baseline: wild type DMSO", "quantity": "relative co-enrichment", "result": "100%"}
{"SMILES": "O=C(N/N=C/c1cc[n+](Cc2ccccc2)c2ccccc12)c1cc(C(=O)N/N=C/c2cc[n+](Cc3ccccc3)c3ccccc23)ncn1", "tested on": "22CTA telomeric G4-DNA antiparallel", "assay": "FRET melting", "setting": "1 µM, K10 buffer, DNA 0.2 µM, added: ds26 10 µM", "quantity": "ΔTm", "result": "13.7 ± 0.5 °C"}
{"SMILES": "CN1CCCNC(=O)c2cccc(c2)C(=O)NCCCN(C)CCCNc2cccc3c2C(=O)c2cccc(c2C3=O)NCCC1", "tested on": "SAS", "assay": "RNA-Seq, item: ANKFY1 mRNA", "setting": "1 µM, 6 h", "how to read": "baseline: untreated cells", "quantity": "log2 fold change", "result": -0.992}
{"SMILES": "COC1CN([C@H]2CC[C@H]([C@@]3(C)Oc4c(Cl)cc(C(=O)NCc5c(SC)cc(C)[nH]c5=O)c(C)c4O3)CC2)C1", "assay": "RNA-seq, item: LRRC2", "system": "human, whole blood", "setting": "dose not given, 24 h", "how to read": "baseline: pretreatment baseline", "quantity": "log2 fold change", "result": 1.84}
{"SMILES": "N#CCNC(=O)c1ccc(C2CCCCC2)cc1", "assay": "hepatocyte stability", "system": "cryopreserved rat hepatocytes", "setting": "1 µM", "quantity": "hepatic clearance", "result": "49 mL/min/kg"}
{"SMILES": "O=C(N/N=C/c1ccc2c(ccc[n+]2Cc2ccccc2)c1)C(=O)N/N=C/c1ccc2c(ccc[n+]2Cc2ccccc2)c1", "tested on": "22CTA telomeric G4-DNA antiparallel", "assay": "FRET melting", "setting": "1 µM, K10 buffer, DNA 0.2 µM, added: ds26 10 µM", "quantity": "ΔTm", "result": "8.4 ± 0.5 °C"}
{"SMILES": "O=C(CCC(F)(F)F)Nc1ccc(C2CCCCC2)cc1", "assay": "hepatocyte stability", "system": "cryopreserved rat hepatocytes", "setting": "1 µM", "quantity": "hepatic clearance", "result": "40 mL/min/kg"}
{"SMILES": "CC[n+]1cccc2cc(/C=N/NC(=O)c3cc(C(=O)N/N=C/c4ccc5c(ccc[n+]5CC)c4)ncn3)ccc21", "tested on": "22CTA telomeric G4-DNA antiparallel", "assay": "FRET melting", "setting": "1 µM, K10 buffer, DNA 0.2 µM", "quantity": "ΔTm", "result": "5.5 ± 1.1 °C"}
{"SMILES": "C=CC(=O)Nc1cccc(Cn2ncc3cnc(Nc4cnn(CCOC)c4)nc32)c1", "tested on": "DCAMKL1 human", "assay": "binding, KINOMEscan", "setting": "100 nM", "how to read": "lower = stronger binding", "quantity": "percent of control", "result": "99%"}
{"note": "Some of these lines once more:"}
{"SMILES": "CNS(=O)(=O)Nc1nccc(Cc2c(C)c3ccc(Oc4ncccc4F)cc3oc2=O)c1F", "tested on": "HEC-6", "assay": "cell viability", "setting": "7 days", "quantity": "IC50", "result": "987 nM"}
